Measurements collected from several papers.
Parts stem from different laboratories: compare values within a part only. Positions count from the first letter of the parent shown.

Sample 1
Target: RNA binding protein fox-1 homolog 2, RRM domain, GST-SBP tag (RBFOX2, Homo sapiens, UniProt O43251-10, residues 100-194)
Method: RNA Bind-n-Seq
Form: RNA
Sample: in vitro
Concentration: 365 nM
Notes: natural RNA segment, single round, ends assumed
Baseline: no-protein control
Direction: higher = stronger binding
Constant ends, left off below: GGGAGUUCUACAGUCCGACGAUC … UGGAAUUCUCGGGUGCCAA
Residues (chain): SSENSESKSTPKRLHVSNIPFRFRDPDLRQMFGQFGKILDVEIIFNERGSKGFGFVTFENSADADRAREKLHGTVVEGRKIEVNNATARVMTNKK
Strand	RBNS enrichment (R)
ACUCUUCGGACUUCAGAGCACUUUAUGUAGUUGAAUAAACCCUAGAGGUUGAGGUGACUAAAAGGUUAGCCUCUCAUAACCCAGCCAUGGAAGUUUUGUUUACUAGGAGC	0.417
GACCUCUGCCUGGAGACGCAGCAGCCUGUGUCCUCCAGGGCCUCUGGUUUGUUGUAUUAUAGUAUAUUUCGCUGUGGAAAAUGUCACGUUUAGUCACCUUGGAGCCCACU	0.34
AAGUCCUUUUCUUUCUUCUUGAGAGACCUAAAGAGAUACUGUAGCUUGUUUUUCUGAUGGCAAAUGGGAACUGUGACAAAGUGAAGUCCUUGUAAAGCGGUGAUACAACU	0.506
GUAUUGAUGUCACUCUGGUGCCUUAGAAGUCAGUCGUCCUUGGGAAGGUGUCUGCGAGACUGGGCCCUUUCUUCUCUCCAGAGCAGGAUGCCUGGUGCUCUUGCUAUUCU	0.321
UGGUGAAGCGCUCUCUGUCCUGGCUGGUUUUUUGUCACCGCAAUCCACUGCCAAAGGCAGAAUUUAAACUAGGGGCUGAGGGAUAGCUCCGAGUAAUGUCCAAUGCUGGG	0.771
UUUUUUUUGUACUUAGAAAACCUAGAUACUGCAGUCAGAUUUUGGAAACUGCCGUAUAGUCACUGUUUUAAAAACCCCGGAGGGGCUGUAUUAAUUUGUAUUGCCCCAUG	0.522
UAUCUAAUUUCAUUCAAACCUCACAACAGUCUUGUGAGGCCCUUAUAUAAUUACUCCCAUUUUGCAGAUGAAGUAACUGAGGCUUAGAAAGGUUAAUAGCACCGGGGAAC	0.62
UAAGAUGACUCUCCAUCUAGAUCAAGUCUUAGCAUCAUACGCAUCACUGUGAACGGAGGGAAGUGCGUGGGGUCAGGUGACCUGACUCCAACGAUUUGGUCAAGGAGGUU	0.676
CAAAGAACAUUCUCUUUCAUCUAUAAAGAAAUUCUUAAAGAUGCAUUGACAGUGUUGAAUUACCAACAGCCUGUGAAGAUCAGUUUGACCGGUGUGGACACGUGCUGGUU	0.299
UAUUUUUCCCUCUCUGGUGAUAAGGUUUGUACAGACUGGUUUGGUAAAUGCUAAAUUUUUGUCUUUUGCCUUUUUAAAGGAAUUGUUACCAUUGGAAUUGAGGGUAUGUA	1.31
UGCAAGUCUUCAGGAUGGCACAAAACAAAGGUUAAUGCUUCUUGGGGCACAUUUCUUAGAGGGCUUGCUGAGUGUGUAAAUAUAAUCGACUUUUGUUUGUGUUACAUGAC	0.421
UACUCAGUAAAUAUUUGUUGAAAUGAAUGAUAAGAGCAUUGGUCCCCAAGCCAGAGAGCCAGAAGCCAUCACCCAAUGACCGCCCCUUCCUUCCGGUCUACAAGAGCUCU	0.753

Sample 2
Target: Prothrombin, mature alpha-thrombin (F2, Homo sapiens, UniProt P00734)
Method: aptamer microarray, sandwich
Form: DNA with 2'F-ANA
Sample: in vitro
Concentration: 200 nM
Notes: whole 15-mer aptamer, many near background
With: Cy3 exosite-II aptamer, 400 nM
Direction: higher = stronger binding
Strand: GGTTGGTGTGGTTGG
Modification	mean fluorescence intensity [a.u.]
2'F-ANA at 1 2 5 7 8 11 12 13	77.1
2'F-ANA at 1 3 4 5 6 8 9 11 12 14	49.4
2'F-ANA at 1 2 3 4 6 7 8 12 13 14	74
2'F-ANA at 2 4 7 11 12 13	418
2'F-ANA at 1 2 3 4 5 6 7 8 9 10 11	82
2'F-ANA at 1 2 3 4 6 8 9 12 13 15	222
2'F-ANA at 2 3 6 9 11 14 15	319
2'F-ANA at 3 4 5 7 11 12 14 15	77.9
2'F-ANA at 1 4 7 8 15	186
2'F-ANA at 2 4 6 7 10 11 13 14	61
2'F-ANA at 3 4 6 8 10 11 14 15	143
2'F-ANA at 1 6 7 8 11 12 13 15	291
2'F-ANA at 1 2 3 11 12 13 14 15	89.4
2'F-ANA at 7 8 10 11 12 14	126
2'F-ANA at 1 2 6 9 13 15	105
2'F-ANA at 1 3 4 5 9 13 14	46.7
2'F-ANA at 1 5 6 9 10 11 12	47.6
2'F-ANA at 4 7 9 12 13 14 15	94.3
2'F-ANA at 3 4 6 8 9 10 11 12 14 15	151

Sample 3
Target: Histone acetyltransferase KAT6A, winged helix 1, GST fusion (KAT6A, Homo sapiens, UniProt Q92794, residues 1-85)
Method: protein binding microarray
Form: double-stranded DNA, one strand shown
Sample: in vitro
Concentration: not given
Notes: 8-mer, flanks averaged, mean of 2 arrays, mostly near background
Baseline: not given
Direction: higher = stronger binding
Target sequence (chain): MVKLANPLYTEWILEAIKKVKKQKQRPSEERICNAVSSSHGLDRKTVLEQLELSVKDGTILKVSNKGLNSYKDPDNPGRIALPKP
Strand	E-score
AAACATTG	-0.173
TGTCTTAA	-0.0978
CTAATAAC	-0.0671
CCAGACTC	-0.224
ATTTGGGG	-0.124
CCCTAGGA	-0.24
AAGCCTAG	-0.0609
ATAAACGC	0.173
GACGCGGA	0.276
CTTATGTA	-0.253
AGCGCGAA	0.317
CTCCCAGA	-0.189
AACGCTAC	0.0245
ATAGCTGC	-0.193
GTACCAAA	-0.188
GTGGGGAA	-0.17
ATGTCCAA	-0.113
CGGATGCC	0.0838
GGACATCA	0.0175
CAATAAAC	-0.0114
CTGTATAC	-0.0505

Sample 4
Target: Sal-like protein 4, full length isoform B (SALL4, Homo sapiens, UniProt Q9UJQ4-2, residues 1-616)
Method: universal PBM
Form: double-stranded DNA, one strand shown
Sample: in vitro
Concentration: not given
Notes: 8-mer, flanks averaged, mean of replicates
Direction: higher = stronger binding
Strand	E-score
ACTGGACA	-0.106
TCCAGCAA	0.103
AACATAGG	0.122
AGAATCCC	0.0174
CACTACGC	-0.194
CAATTGCG	-0.0952
GCTATGAC	0.124
ATACCGAC	-0.0881
GCAGAACC	-0.219
GCAGTGAC	-0.2
GGAGCTCA	-0.102
CGTATTGA	0.192
AACGTTAC	0.115
AAAATATG	0.398
AATACCTC	0.111
AAGTGTAA	0.13
AGCAAAAT	0.207
AGACGGCT	-0.264
CACTAAAA	0.0464
AATTGGCT	0.171
TCCAACGA	0.0995
AGTGAAAC	0.0849
GGAAGATA	0.157
AGATGCCA	-0.059
ACCGGCAT	-0.0687

Sample 5
Target: ABI1, truncated, D143A, DHFR fusion (Arabidopsis thaliana)
Method: DHFR PCA, deep sequencing
Sample: yeast
Notes: methotrexate growth selection, single substitutions
With: (+)-ABA 2500 µM
Baseline: wild-type fitted maximum
Direction: higher = stronger binding
Starting sequence: PYL1, truncated, DHFR fusion (Arabidopsis thaliana); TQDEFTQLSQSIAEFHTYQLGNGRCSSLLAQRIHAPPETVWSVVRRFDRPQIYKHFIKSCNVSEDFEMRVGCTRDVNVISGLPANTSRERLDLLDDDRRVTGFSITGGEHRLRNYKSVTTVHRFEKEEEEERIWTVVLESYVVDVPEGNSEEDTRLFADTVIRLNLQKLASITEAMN; partner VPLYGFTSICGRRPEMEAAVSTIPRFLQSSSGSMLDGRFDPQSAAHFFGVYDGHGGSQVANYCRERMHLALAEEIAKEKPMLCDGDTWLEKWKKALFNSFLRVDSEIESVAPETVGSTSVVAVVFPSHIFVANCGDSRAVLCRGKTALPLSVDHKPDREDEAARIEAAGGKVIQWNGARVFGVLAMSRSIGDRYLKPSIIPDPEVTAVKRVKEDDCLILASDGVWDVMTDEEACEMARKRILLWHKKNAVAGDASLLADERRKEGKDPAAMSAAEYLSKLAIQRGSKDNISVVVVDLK
Variant	relative binding score [%]
S140P	-0.00983
E127W	97.6
S9W	87.7
E147L	93.3
V137Q	4.96
R24A	91.9
E64C	92.9
E64H	98
V143I	79.2
V136A	88.2
R46E	94
E152H	93
D3H	87.7
I52S	98.6
K126R	105
T173S	96.5
I172W	89.2
S63D	99.4
G21N	99.8
E147I	95.7
D3A	101
C60V	97
G108A	80
T6P	110
T119I	100

For quick reference, copied from above (sample 4):
Strand	E-score
AATTGGCT	0.171
CACTAAAA	0.0464
GGAGCTCA	-0.102
TCCAGCAA	0.103
GGAAGATA	0.157
AGATGCCA	-0.059
CGTATTGA	0.192
AATACCTC	0.111
AGAATCCC	0.0174
AAAATATG	0.398
AACATAGG	0.122
AGACGGCT	-0.264
AACGTTAC	0.115
AGCAAAAT	0.207
